Experimental data pooled from the literature.
Compare with care: the assays were run in different laboratories. pIC50: −log10 of the molar value.
Sequence of UniProt Q5S007 (whole entry, looked up): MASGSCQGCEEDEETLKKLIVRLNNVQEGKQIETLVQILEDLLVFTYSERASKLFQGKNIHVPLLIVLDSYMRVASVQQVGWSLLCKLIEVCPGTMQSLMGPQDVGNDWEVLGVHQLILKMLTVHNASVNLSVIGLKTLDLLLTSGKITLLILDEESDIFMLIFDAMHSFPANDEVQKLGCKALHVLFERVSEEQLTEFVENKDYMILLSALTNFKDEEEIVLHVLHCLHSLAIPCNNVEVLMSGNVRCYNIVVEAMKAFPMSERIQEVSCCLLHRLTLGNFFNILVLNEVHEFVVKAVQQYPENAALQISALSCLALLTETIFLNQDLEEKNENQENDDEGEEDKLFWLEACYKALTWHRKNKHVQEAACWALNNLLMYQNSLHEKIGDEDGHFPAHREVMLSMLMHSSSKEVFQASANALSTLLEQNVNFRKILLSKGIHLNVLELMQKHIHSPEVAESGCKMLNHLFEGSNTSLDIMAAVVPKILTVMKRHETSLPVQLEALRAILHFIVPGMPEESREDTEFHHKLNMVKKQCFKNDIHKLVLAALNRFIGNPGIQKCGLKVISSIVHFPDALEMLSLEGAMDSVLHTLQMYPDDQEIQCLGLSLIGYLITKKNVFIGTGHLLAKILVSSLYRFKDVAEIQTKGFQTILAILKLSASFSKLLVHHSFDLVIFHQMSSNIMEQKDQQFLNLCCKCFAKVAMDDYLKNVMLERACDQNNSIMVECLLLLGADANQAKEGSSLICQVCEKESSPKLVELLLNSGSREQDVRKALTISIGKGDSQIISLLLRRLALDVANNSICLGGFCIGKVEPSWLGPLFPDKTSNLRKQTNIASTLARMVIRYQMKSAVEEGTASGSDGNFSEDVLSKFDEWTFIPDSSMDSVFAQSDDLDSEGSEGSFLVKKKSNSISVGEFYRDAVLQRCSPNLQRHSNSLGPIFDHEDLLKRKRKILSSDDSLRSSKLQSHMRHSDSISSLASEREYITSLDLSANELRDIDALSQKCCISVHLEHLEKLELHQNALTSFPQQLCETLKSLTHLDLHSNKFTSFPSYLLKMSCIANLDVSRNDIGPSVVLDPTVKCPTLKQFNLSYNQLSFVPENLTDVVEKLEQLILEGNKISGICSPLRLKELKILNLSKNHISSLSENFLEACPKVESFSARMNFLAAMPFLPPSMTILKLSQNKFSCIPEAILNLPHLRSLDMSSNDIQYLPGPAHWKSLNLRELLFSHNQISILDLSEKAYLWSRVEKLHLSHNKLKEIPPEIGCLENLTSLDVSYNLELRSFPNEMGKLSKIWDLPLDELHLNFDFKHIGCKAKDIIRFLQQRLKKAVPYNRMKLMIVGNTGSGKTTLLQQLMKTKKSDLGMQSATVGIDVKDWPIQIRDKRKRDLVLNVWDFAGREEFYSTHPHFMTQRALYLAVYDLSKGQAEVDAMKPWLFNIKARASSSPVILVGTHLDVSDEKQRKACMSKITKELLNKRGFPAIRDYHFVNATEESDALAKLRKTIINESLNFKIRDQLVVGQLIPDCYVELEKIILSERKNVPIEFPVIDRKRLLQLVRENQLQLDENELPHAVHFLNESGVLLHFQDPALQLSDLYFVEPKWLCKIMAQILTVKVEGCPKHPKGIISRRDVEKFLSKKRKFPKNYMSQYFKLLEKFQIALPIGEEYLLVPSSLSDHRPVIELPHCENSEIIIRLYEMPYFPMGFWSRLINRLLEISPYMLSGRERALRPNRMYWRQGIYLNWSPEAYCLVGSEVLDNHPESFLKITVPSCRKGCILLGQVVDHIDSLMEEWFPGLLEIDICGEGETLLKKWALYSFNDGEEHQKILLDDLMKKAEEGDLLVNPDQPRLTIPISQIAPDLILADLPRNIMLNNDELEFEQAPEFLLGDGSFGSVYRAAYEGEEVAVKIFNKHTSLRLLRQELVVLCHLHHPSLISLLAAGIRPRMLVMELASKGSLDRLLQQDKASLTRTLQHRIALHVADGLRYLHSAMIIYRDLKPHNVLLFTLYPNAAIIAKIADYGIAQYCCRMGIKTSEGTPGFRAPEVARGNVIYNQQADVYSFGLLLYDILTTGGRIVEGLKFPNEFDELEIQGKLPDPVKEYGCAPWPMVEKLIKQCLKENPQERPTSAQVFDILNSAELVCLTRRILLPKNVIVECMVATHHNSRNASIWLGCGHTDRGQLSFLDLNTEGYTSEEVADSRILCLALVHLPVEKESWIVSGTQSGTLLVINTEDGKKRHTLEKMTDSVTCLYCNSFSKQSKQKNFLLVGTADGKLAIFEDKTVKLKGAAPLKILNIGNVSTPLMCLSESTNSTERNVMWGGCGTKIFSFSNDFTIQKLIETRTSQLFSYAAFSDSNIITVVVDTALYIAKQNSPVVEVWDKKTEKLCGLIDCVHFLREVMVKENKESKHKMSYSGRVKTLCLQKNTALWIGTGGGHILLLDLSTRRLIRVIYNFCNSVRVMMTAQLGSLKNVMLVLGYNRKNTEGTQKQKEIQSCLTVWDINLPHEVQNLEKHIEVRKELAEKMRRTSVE
Sequence of UniProt Q08210 (whole entry, looked up): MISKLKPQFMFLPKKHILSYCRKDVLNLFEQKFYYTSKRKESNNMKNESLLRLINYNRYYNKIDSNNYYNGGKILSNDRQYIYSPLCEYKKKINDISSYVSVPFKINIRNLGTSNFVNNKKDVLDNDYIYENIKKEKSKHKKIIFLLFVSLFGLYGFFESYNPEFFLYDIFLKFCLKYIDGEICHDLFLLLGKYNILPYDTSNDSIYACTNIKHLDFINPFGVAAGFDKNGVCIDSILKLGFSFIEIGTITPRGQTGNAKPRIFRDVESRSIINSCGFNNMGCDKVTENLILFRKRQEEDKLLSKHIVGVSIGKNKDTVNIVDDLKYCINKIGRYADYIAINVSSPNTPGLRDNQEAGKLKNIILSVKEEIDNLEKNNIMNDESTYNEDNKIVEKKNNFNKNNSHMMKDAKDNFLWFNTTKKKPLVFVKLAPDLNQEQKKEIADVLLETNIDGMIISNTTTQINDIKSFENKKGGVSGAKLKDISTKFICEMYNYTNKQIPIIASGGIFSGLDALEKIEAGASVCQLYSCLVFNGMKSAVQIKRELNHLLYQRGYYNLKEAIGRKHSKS

The pIC50 of `Nc1c(C(=O)N2CCOCC2)sc2ncccc12` is reported as under 4.00 (Mycobacterium tuberculosis; microbial growth; H37RV).
With `CCOC(=O)C1=C[C@@H](OC(CC)CC)[C@H](NC(C)=O)[C@@H](N)C1` the IC50 was 1.63 µg/mL (Influenza A virus; viral replication; MDCK, H3N2).
For `COC(=O)c1cc(-c2cccc(NC(=O)Nc3ccc(C(F)(F)F)cc3)c2)on1`, the MIC was over 64 µg/mL (Mycobacteroides chelonae; microbial growth, broth dilution; ATCC35752; 48 h).
For `COc1ccc(-c2cc(C(F)(F)F)c3c(N)c(C(=O)N4C5CCCC4COC5)sc3n2)cc1`, the pIC50 was under 4.00 (Mycobacterium tuberculosis; microbial growth; H37RV).
For `COC(=O)c1cc(-c2cccc(NC(=O)Nc3ccc(C)cc3)c2)on1`, the MIC was over 64 µg/mL (Klebsiella pneumoniae; microbial growth, broth dilution; BAA1705).
With `CCCCCCC(=O)NCc1c(O)c(=O)cc(C)n1C` the pIC50 was 5.44 (Pseudomonas aeruginosa; microbial growth; PAO1).
The pIC50 of `CC(=O)N1C(=CNc2cccc(Cc3ccccc3)c2)C(=O)c2cccnc21` is reported as 3.92 (unidentified influenza virus; viral replication, inhibitor; MDCK, PR/8).
`NC(=O)c1ncn([C@@H]2O[C@H](CO)[C@@H](O)[C@H]2O)n1` has an IC50 of 1.92 µg/mL (Influenza A virus; viral replication; MDCK, H3N2).
For `Cc1nc2ccccc2n1[C@@H]1C[C@H]2CC[C@@H](C1)N2Cc1nccn1-c1ccccc1`, the pIC50 was 6.54 (PFF0160c (Plasmodium falciparum, UniProt Q08210); enzyme activity, inhibitor, absorbance).
The pIC50 of `CCCCCCC#Cc1cncc(-c2nnc(SCc3cc([N+](=O)[O-])cc([N+](=O)[O-])c3)n2C2CC2)c1` is reported as 6.02 (Mycobacterium tuberculosis; microbial growth; ERDMAN).
With `[2H]c1c([2H])c([C@]2([2H])CCCN2C(=O)C(C)(C)Oc2ccc3cn[nH]c3c2)c([2H])c([2H])c1C([2H])([2H])[2H]` the remaining binding was 99% (LRRK2 (Homo sapiens, UniProt Q5S007); binding, competition with immobilised ligand; 1 µM).
For `C#CCCCCC(=O)NCc1c(O)c(=O)cc(C)n1C`, the pIC50 was under 4.00 (Pseudomonas aeruginosa; microbial growth; PAO1).
